# Earlier results, collected from citations in different studies.
# Protocols differ between the studies behind these lines. “And” joins repeats or separate records; there may be more than shown.
# UniProt Q9HCP0, sequence (whole entry, looked up): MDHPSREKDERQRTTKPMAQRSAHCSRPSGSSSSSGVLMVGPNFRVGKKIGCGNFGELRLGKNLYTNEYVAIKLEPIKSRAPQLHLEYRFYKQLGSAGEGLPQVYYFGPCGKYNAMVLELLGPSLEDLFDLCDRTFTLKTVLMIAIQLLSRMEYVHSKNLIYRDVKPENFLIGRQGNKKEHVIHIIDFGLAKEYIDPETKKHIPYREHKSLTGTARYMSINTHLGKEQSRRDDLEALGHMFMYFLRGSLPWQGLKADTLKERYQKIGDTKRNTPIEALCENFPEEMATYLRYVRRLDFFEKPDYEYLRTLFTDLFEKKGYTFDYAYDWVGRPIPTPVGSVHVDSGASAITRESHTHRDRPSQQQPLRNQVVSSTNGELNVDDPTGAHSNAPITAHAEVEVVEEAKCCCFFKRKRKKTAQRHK
SMILES,tested on,assay,test system,setting,scale,endpoint,result
C[C@@H](O)[C@H]1C(=O)N2C(C(=O)O)=C(S[C@@H]3CN[C@H](C(=O)N(C)C)C3)[C@H](C)[C@H]12,,"perpetrator, measured: valproic acid","human, serum",dose not given,relative to: without compound,serum concentration reduction,89%
Cc1ccc(NC(=O)c2ccc(CN3CCN(C)CC3)cc2)cc1Nc1nc(-c2cccnc2)cs1,,,human,"dose not given, steady state estimated",,total clearance,42 to 84 L/h
CC[C@H](C)CCCCC(=O)N[C@@H](CCN)C(=O)N[C@H](C(=O)N[C@@H](CCN)C(=O)N[C@H]1CCNC(=O)[C@H]([C@@H](C)O)NC(=O)[C@H](CCN)NC(=O)[C@H](CCN)NC(=O)[C@H](CC(C)C)NC(=O)[C@@H](Cc2ccccc2)NC(=O)[C@H](CCN)NC1=O)[C@@H](C)O,,,"rat, urine",,,urinary excretion,< 5%
COc1ccccc1OCCNCC(O)COc1cccc2[nH]c3ccccc3c12 (stereo not drawn),,,plasma,"concentration not given, total, steady state",,Cmax,0.26 µM
CC1=C(/C=C/C(C)=C/C=C/C(C)=C/C(=O)O)C(C)(C)CCC1,,,water,,,solubility,< 1 mg/mL
CNCc1cc(-c2ccccc2F)n(S(=O)(=O)c2cccnc2)c1,,,"human, plasma","15 mg single dose, observed clinical data",,Cmax,13.6 ng/mL
Nc1cc(C(F)(F)F)c(-c2nc(N3CCOCC3)nc(N3CCOCC3)n2)cn1,"CSNK1G1 (Homo sapiens, UniProt Q9HCP0)",enzyme activity,,10 µM,relative to: untreated,remaining activity,100%
Cc1cn([C@H]2C[C@H](N=[N+]=[N-])[C@@H](CO)O2)c(=O)[nH]c1=O,,,monkey,200 mg/kg,,oral bioavailability,48%
N[C@@H](CC(=O)N1CCn2c(nnc2C(F)(F)F)C1)Cc1cc(F)c(F)cc1F,,,healthy human,"oral, time not given",relative to: dose,parent recovered in urine,> 80%
CN1CCC[C@@H]1CCO[C@](C)(c1ccccc1)c1ccc(Cl)cc1,,,human,,,free Cmax,0.15 nM
CC1(C)S[C@@H]2[C@H](NC(=O)[C@H](N)c3ccccc3)C(=O)N2[C@H]1C(=O)O,Escherichia coli,,clinical isolate RKI-No_75/15,,,MIC,> 16 mg/L
COc1cc2nc(N3CCN(C(=O)c4ccco4)CC3)nc(N)c2cc1OC,,,supercritical CO2,,,crossover pressure,180 to 200 bar
C[C@@H]1CCO[C@H]2Cn3cc(C(=O)NCc4ccc(F)cc4F)c(=O)c(O)c3C(=O)N12,,,"human, plasma",50 mg daily,"relative to: normal renal function, lower",trough concentration change,85%
Nc1nc(O)c2ncn(COC(CO)CO)c2n1,,,human,1000 mg three times daily,,oral bioavailability,8.53%
CCc1c(N(CC)C2CCOCC2)cc2oc(CN3CCCCC3)cc2c1C(=O)NCc1c(C)cc(C)[nH]c1=O,,,patients,dose not given,,anaemia incidence,41%
CN(C)C(=O)c1cc2cnc(Nc3ccc(N4CCNCC4)cn3)nc2n1C1CCCC1,,measured: neutropenia,advanced solid tumour or lymphoma patients,"dose not given, 3 weeks on 1 week off, any grade",relative to: patients,adverse event incidence,35.1%
COc1ccc(Cl)cc1C(=O)NCCc1ccc(S(=O)(=O)NC(=O)NC2CCCCC2)cc1,,,water,,,solubility,< 1 mg/mL
O=C(CCCCCCC(=O)Nc1ccccc1)NO,,,BALB/c nude mice,"oral, 50 mg/kg single",,AUC(0-inf),2.3 µM·h
N#CCNC(=O)c1ccc(-c2ccnc(Nc3ccc(N4CCOCC4)cc3)n2)cc1,,measured: compound,"human, urine","oral, dose not given, single dose 14C-labelled",relative to: dose,excreted dose,0.6%
C[Si]1(C)O[Si](C)(C)O[Si](C)(C)O[Si](C)(C)O[Si](C)(C)O1,,,,"0.13 0.24 µg/L in water, 24.6 °C",,log KAW,3.13
O=C(c1ccccc1)c1ccc2n1CCC2C(=O)O (stereo not drawn),,,plasma,concentration not given,,unbound Cmax,0.1 µM
CCCCCCCN(CC)CCCC(O)c1ccc(NS(C)(=O)=O)cc1 (stereo not drawn),,,human,,,free Cmax,8.12 nM
CCC(C)n1ncn(-c2ccc(N3CCN(c4ccc(OCC5COC(Cn6cncn6)(c6ccc(Cl)cc6Cl)O5)cc4)CC3)cc2)c1=O (stereo not drawn),,,,pH 6.50,,solubility,0.008 mg/mL
C[C@H]1COCCN1c1nc(-c2cnc(N)cc2C(F)F)nc(N2CCOCC2)n1,A 172,,,,,GI50,299 nM
Cc1[nH]cc(Br)c(=O)c1-c1ccc(Oc2ccccc2)cc1,Plasmodium falciparum,whole cell extended time,3D7,72 h,,IC50,680 nM
CC(C)(CO)c1cc2cc(NC(=O)C3(c4ccc5c(c4)OC(F)(F)O5)CC3)c(F)cc2n1C[C@@H](O)CO,,,"human reference individuals, plasma",,,fraction unbound,0.009
CCOc1cc(CC(=O)N[C@@H](CC(C)C)c2ccccc2N2CCCCC2)ccc1C(=O)O,,,supercritical CO2,,,crossover pressure,180 to 200 bar
CC(C(=O)NCC(=O)NCC(CNC(=O)CNC(=O)C(C)N1CCN(CC(=O)[O-])CCN(CC(=O)[O-])CCN(CC(=O)[O-])CC1)(CNC(=O)CNC(=O)C(C)N1CCN(CC(=O)[O-])CCN(CC(=O)[O-])CCN(CC(=O)[O-])CC1)CNC(=O)CNC(=O)C(C)N1CCN(CC(=O)[O-])CCN(CC(=O)[O-])CCN(CC(=O)[O-])CC1)N1CCN(CC(=O)[O-])CCN(CC(=O)[O-])CCN(CC(=O)[O-])CC1.[Gd+3].[Gd+3].[Gd+3].[Gd+3] (stereo not drawn),,,human plasma,1.41 T,,T1 relaxivity,11.8 L/(mmol Gd·s)
N[C@@H](Cc1ccc(O)c(O)c1)C(=O)O,,,plasma,,,free Cmax,49.9 nM
COc1ccc(-c2ocnc2C(=O)NCCCc2ccc([18F])nc2)cc1Cl,,PET,nonhuman primates,,,brain uptake,~2 SUV
CCN(CC)C(=S)SSC(=S)N(CC)CC,,,water,,,solubility,< 1 mg/mL
C=CC[C@@H]1/C=C(\C)C[C@H](C)C[C@H](OC)[C@H]2O[C@@](O)(C(=O)C(=O)N3CCCC[C@H]3C(=O)O[C@H](/C(C)=C/[C@@H]3CC[C@@H](O)[C@H](OC)C3)[C@H](C)[C@@H](O)CC1=O)[C@H](C)C[C@@H]2OC,,,"human, urine",dose not given,,fraction excreted unchanged,< 1%
COc1ccc(CCN2CCC(Nc3nc4ccccc4n3Cc3ccc(F)cc3)CC2)cc1,,,human,,,free Cmax,0.204 nM
Cn1c(=O)c2c(ncn2CC(=O)Nc2ccc(-c3ccccc3)nn2)n(C)c1=O,,,"human, advanced cancer","dose not given, phase I trial",relative to: subjects,incidence of anorexia,~25%
CC(C)(O)c1ccccc1CC[C@@H](SCC1(CC(=O)O)CC1)c1cccc(/C=C/c2ccc3ccc(Cl)cc3n2)c1,,,plasma,"concentration not given, total, steady state",,Cmax,0.89 µM
CNC(=O)c1cc(Oc2ccc(NC(=O)Nc3ccc(Cl)c(C(F)(F)F)c3)cc2)ccn1,,,human,"concentration not given, clinical",,diarrhoea incidence,43%
Cc1cn([C@@H]2C[C@@H](O)[C@H](CO)O2)c(=O)[nH]c1=O,,,human,,,oral bioavailability,68%
CN(C/C=C/C#CC(C)(C)C)Cc1cccc2ccccc12,,,water,,,solubility,< 1 mg/mL
Nc1cccc2c1C(=O)N(C1CCC(=O)NC1=O)C2=O (stereo not drawn),,,relapsed refractory multiple myeloma patients,"dose not given, grade up to 4",,incidence of grade 3 neutropenia,47%
CC(=O)Oc1ccccc1C(=O)O,,,water,,,solubility,< 1 mg/mL
Nc1ccn([C@@H]2O[C@H](CO)[C@@H](O)C2(F)F)c(=O)n1,,,metastatic pancreatic cancer patients,dose not given,,grade 1-4 thrombocytopenia incidence,70%
COc1ccc(CNc2nc(-c3ccc(C(=O)O)cc3)nc3sc4ccccc4c23)cc1Cl,,,mouse,intravenous,,half-life,42 min
CC#CC(=O)N[C@H]1CCCN(c2c(F)cc(C(N)=O)c3[nH]c(C)c(C)c23)C1,,,human,10 mg once daily,,AUC(0-last),100 ng·h/mL
Cc1[nH]c(C)c(-c2ccc(OCc3ccc(F)cc3)cc2)c(=O)c1Br,Plasmodium falciparum,whole cell extended time,3D7,72 h,,IC50,80 nM
CC(=O)c1c(C)c2cnc(Nc3ccc(N4CCNCC4)cn3)nc2n(C2CCCC2)c1=O,,,rat female,"200 mg/kg, day 3 of cycle 21",,AUC,7050 ng·h/mL
COCCc1ccc(OCC(O)CNC(C)C)cc1 (stereo not drawn),,,human,100 mg,,"AUC(0-48 h), geometric mean",474 ng·h/mL
Cn1c(Cn2ccc(C(F)(F)F)c(Oc3cc(Cl)cc(C#N)c3)c2=O)n[nH]c1=O,,,human subjects,"dose not given, up to 48 weeks",,Nasopharyngitis incidence,7.8%
CC(C(=O)O)c1ccc(-c2ccccc2)c(F)c1 (stereo not drawn),,,human,,,Vd,6 to 8 L
CC(C)NCC(O)COc1cccc2ccccc12 (stereo not drawn),,,plasma,,,free Cmax,956 nM
COc1ncc(-c2nc3c(n2C(C)C)[C@H](c2ccc(Cl)cc2)N(c2cc(Cl)cn(C)c2=O)C3=O)c(OC)n1,,,human cancer patients,"1 to 400 mg, cycle 1 day 1, multiple dosing schedules",,"half-life, median",6.4 to 31.1 h
CC(=O)OCC(CCn1cnc2cnc(N)nc21)COC(C)=O,,,human,,,oral bioavailability,77%
Cc1cc(Nc2ncc(Cl)c(Nc3ccccc3S(=O)(=O)C(C)C)n2)c(OC(C)C)cc1C1CCNCC1,,,FaSSIF,literature value,,solubility,0.00558 mg/mL
CCCOc1ccc(S(=O)(=O)N2CCN(CCO)CC2)cc1-c1nc2c(CCC)cn(CC)c2c(=O)[nH]1,,,healthy male volunteers,"dose not given, with concomitant alcohol",,pulse rate change,17.9 bpm
Cc1c(OCC(F)(F)F)ccnc1C[S+]([O-])c1nc2ccccc2[nH]1 (stereo not drawn),,,plasma,"concentration not given, total, steady state",,Cmax,0.67 µM
N#C[C@@]1(c2ccc3c(N)ncnn23)O[C@H](CO)[C@@H](O)[C@H]1O,,,"dog, plasma","intravenous, 2 mg/kg, 1 h, solution",,plasma concentration,1350 ng/mL
c1ccc2c(c1)ccc1ccccc12,,,"zebrafish embryos, whole embryo","206.7 ng/well, 48 hpf, single exposure",,amount in tissue,10.6 ng/well and 11.6 ng/well
O=c1cc(-c2ccccc2)oc2cc(O)c(O)c(O)c12,,,human,oral,,well-tolerated dose range,200 to 800 mg
C[C@@H](Oc1cc(-c2cnn(C3CCNCC3)c2)cnc1N)c1c(Cl)ccc(F)c1Cl,,,FaSSIF,literature value,,solubility,0.743 mg/mL
CCc1cc2c(cc1CC)CC(NC[C@H](O)c1ccc(O)c3[nH]c(=O)ccc13)C2,,,human,,,systemic clearance,0.3 L/h/kg
[H]/N=C(/N)N[C@H]1[C@H](O)[C@@H](O)[C@H](O[C@@H]2O[C@@H](C)[C@](O)(C=O)[C@H]2O[C@@H]2O[C@@H](CO)[C@H](O)[C@@H](O)[C@@H]2NC)[C@@H](N/C(N)=N\[H])[C@@H]1O,,,plasma,,,plasma fraction unbound,0.66
CC(O)c1cc(C(=O)N[C@@H](C)Cn2ccc(-c3ccc(C#N)c(Cl)c3)n2)[nH]n1 (stereo partly drawn),,,,monoprotic base,,pKa,2.4
CNC(C)C1CCC(N)C(OC2C(N)CC(N)C(OC3OCC(C)(O)C(NC)C3O)C2O)O1 (stereo not drawn),Klebsiella pneumoniae,,clinical isolate RKI-No_600/16,,,MIC,≤ 0.5 mg/L
CN(C)C(=N)N=C(N)N,,,healthy human,,,CLint passive liver,0.012 mL/min
Cc1cc(C)c(CNC(=O)c2cc(Cl)c3c(c2C)O[C@@](C)([C@H]2CC[C@H](N(C)C)CC2)O3)c(=O)[nH]1,,,human,200 mg,,AUC(0-inf),10300 ng·h/mL
C#CCC(Cc1cnc2nc(N)nc(N)c2n1)c1ccc(C(=O)N[C@@H](CCC(=O)O)C(=O)O)cc1 (stereo partly drawn),,,water,,,solubility,< 1 mg/mL
N#CCNC(=O)c1ccc(-c2ccnc(Nc3ccc(N4CCOCC4)cc3)n2)cc1,,,severe renal impairment,dose not given,,AUC(0-inf) decrease,16%

# A few entries again:
SMILES,tested on,assay,test system,setting,scale,endpoint,result
Nc1nc(O)c2ncn(COC(CO)CO)c2n1,,,human,1000 mg three times daily,,oral bioavailability,8.53%
O=c1cc(-c2ccccc2)oc2cc(O)c(O)c(O)c12,,,human,oral,,well-tolerated dose range,200 to 800 mg
Cc1ccc(NC(=O)c2ccc(CN3CCN(C)CC3)cc2)cc1Nc1nc(-c2cccnc2)cs1,,,human,"dose not given, steady state estimated",,total clearance,42 to 84 L/h
CN(C)C(=N)N=C(N)N,,,healthy human,,,CLint passive liver,0.012 mL/min
COc1ccc(-c2ocnc2C(=O)NCCCc2ccc([18F])nc2)cc1Cl,,PET,nonhuman primates,,,brain uptake,~2 SUV
C#CCC(Cc1cnc2nc(N)nc(N)c2n1)c1ccc(C(=O)N[C@@H](CCC(=O)O)C(=O)O)cc1 (stereo partly drawn),,,water,,,solubility,< 1 mg/mL
COc1ncc(-c2nc3c(n2C(C)C)[C@H](c2ccc(Cl)cc2)N(c2cc(Cl)cn(C)c2=O)C3=O)c(OC)n1,,,human cancer patients,"1 to 400 mg, cycle 1 day 1, multiple dosing schedules",,"half-life, median",6.4 to 31.1 h
N#CCNC(=O)c1ccc(-c2ccnc(Nc3ccc(N4CCOCC4)cc3)n2)cc1,,,severe renal impairment,dose not given,,AUC(0-inf) decrease,16%
CC(C)(CO)c1cc2cc(NC(=O)C3(c4ccc5c(c4)OC(F)(F)O5)CC3)c(F)cc2n1C[C@@H](O)CO,,,"human reference individuals, plasma",,,fraction unbound,0.009
CC1(C)S[C@@H]2[C@H](NC(=O)[C@H](N)c3ccccc3)C(=O)N2[C@H]1C(=O)O,Escherichia coli,,clinical isolate RKI-No_75/15,,,MIC,> 16 mg/L
O=C(CCCCCCC(=O)Nc1ccccc1)NO,,,BALB/c nude mice,"oral, 50 mg/kg single",,AUC(0-inf),2.3 µM·h
